{"data": "Published values collected from several papers", "organism": "Bacillus subtilis", "note": "Protocols differ between the studies behind these lines."}
{"SMILES": "CC[C@H](C)[C@@H]1NC(=O)CNC(=O)[C@H](CCCCN)NC(=O)[C@H](C)NC(=O)[C@H](CCC(=O)O)NC(=O)[C@H](Cc2ccccc2)NC(=O)[C@H](CO)NC(=O)[C@H](CC(C)C)NC(=O)[C@H](C(C)C)NC(=O)[C@H](CC(=O)O)NC(=O)[C@@H](NC(=O)[C@@H](NC(=O)[C@@H](N)C(C)C)[C@@H](C)O)CSSC[C@@H]2NC(=O)[C@H](CO)NC(=O)CNC(=O)CNC(=O)[C@H](CCCCN)NC(=O)[C@H](CCCCN)NC(=O)[C@H](CCCNC(=N)N)NC(=O)[C@H](CC(C)C)NC(=O)[C@H](C)NC(=O)[C@H]([C@@H](C)CC)NC(=O)[C@@H]3CSSC[C@@H](C(=O)N[C@@H](CCCNC(=N)N)C(=O)N[C@@H](CC(N)=O)C(=O)O)NC(=O)[C@H](C(C)C)NC(=O)[C@H](CSSC[C@H](NC(=O)[C@H](C)NC(=O)[C@H](CO)NC(=O)[C@H](Cc4c[nH]cn4)NC(=O)[C@H](CC(N)=O)NC(=O)[C@H](C(C)C)NC(=O)[C@H](C)NC1=O)C(=O)N[C@@H](C)C(=O)N[C@@H](CC(C)C)C(=O)N[C@@H](Cc1c[nH]cn1)C(=O)N3)NC(=O)[C@H](C(C)C)NC(=O)CNC(=O)[C@H](CC(N)=O)NC(=O)[C@H](CCC(N)=O)NC2=O", "assay": "broth microdilution", "test system": "KCTC 3068", "conditions": "16 h, 37 °C", "MIC": "1.6 µM"}
{"SMILES": "CC(C)C[C@H](NC(=O)[C@H](CC(C)C)NC(=O)[C@H](CCCCN)NC(=O)CNC(=O)[C@H](CC(C)C)NC(=O)[C@H](CC(C)C)NC(=O)[C@H](CO)NC(=O)[C@H](CC(C)C)NC(=O)[C@H](CC(C)C)NC(=O)[C@@H]1CCCN1C(=O)[C@H](CC(C)C)NC(=O)[C@H](CC(C)C)NC(=O)CN)C(N)=O", "assay": "broth microdilution", "MIC": "3.12 µM"}
{"SMILES": "CN1C(=O)[C@@H]2NC(=O)[C@@H]3NC(=O)[C@@H](c4ccc(O)cc4)NC(=O)[C@H](NC(=O)C(NCc4cc(Cl)cc(Cl)c4Cl)c4ccc(O)cc4)Cc4c[nH]c5cc(ccc45)-c4cc3cc(c4O)Oc3ccc(cc3)C[C@H]1C(=O)N[C@@H](C(=O)O)c1ccc(O)c(c1)Oc1ccc2cc1 (some centres unmarked)", "test system": "168, Mueller-Hinton broth", "MIC": "4 µg/mL"}
{"SMILES": "c1ccc(CCNC2CCCc3c2[nH]c2ccc(C4CCCCC4)cc32)cc1 (centres unmarked)", "assay": "microbial growth, broth dilution", "MIC": "2 µg/mL"}
{"SMILES": "CC(C)C[C@@H]1NC(=O)[C@H](CCCCN)NC(=O)CSC[C@@H](C(=O)N[C@@H](CCCCN)C(N)=O)NC(=O)[C@H](CC(C)C)NC(=O)[C@H](CC(C)C)NC(=O)[C@H](CC(C)C)NC(=O)[C@@H]2CSCC(=O)N[C@@H](CCCCN)C(=O)N[C@@H](CC(C)C)C(=O)N[C@@H](CCCCN)C(=O)N[C@@H](CCCCNC(=O)[C@H](CCCCN)NC1=O)C(=O)N[C@@H](CCCCN)C(=O)N[C@@H](CC(C)C)C(=O)N[C@@H](CC(C)C)C(=O)N2", "test system": "BR 151", "conditions": "18 h", "MIC": "1 µg/mL"}
{"SMILES": "CC[C@H](C)[C@H](NC(=O)[C@H](NC(=O)[C@@H](CCC(N)=O)NC(=O)[C@@H](N)COC(=O)[C@@H](NC(=O)[C@@H](Cc1ccccc1)NC)[C@@H](C)CC)[C@@H](C)CC)C(=O)N[C@@H](CO)C(=O)N[C@H]1C(=O)N[C@@H](C)C(=O)N[C@@H](C2CCCCC2)C(=O)N[C@@H]([C@@H](C)CC)C(=O)O[C@H]1C", "assay": "broth microdilution", "test system": "ATCC 6051, Mueller-Hinton broth", "conditions": "16 h, 37 °C", "MIC": "0.0625 µg/mL"}
{"SMILES": "CN1C(=O)[C@@H]2NC(=O)[C@@H]3NC(=O)[C@@H](c4ccc(O)cc4)NC(=O)[C@H](NC(=O)C(N)c4ccc(O)cc4)Cc4c[nH]c5cc(ccc45)-c4cc3cc(c4O)Oc3ccc(cc3)C[C@H]1C(=O)N[C@@H](C(=O)NCCC[N+](C)(C)C)c1ccc(O)c(c1)Oc1ccc2cc1 (some centres unmarked)", "test system": "168, Mueller-Hinton broth", "MIC": "4 µg/mL"}
{"SMILES": "CCCCCCCCCC(=O)NCCCC[C@H](NC(=O)[C@H](CCCCN)NC(=O)[C@@H]1CSCC(=O)N[C@@H](CCCCN)C(=O)N[C@@H](CC(C)C)C(=O)N[C@@H](CCCCN)C(=O)NCCCC[C@@H]2NC(=O)[C@H](CCCCN)NC(=O)[C@H](CC(C)C)NC(=O)[C@H](CCCCN)NC(=O)CSC[C@H](NC(=O)[C@H](CC(C)C)NC(=O)[C@H](CC(C)C)NC(=O)[C@H](CCCCN)NC2=O)C(=O)N[C@@H](CC(C)C)C(=O)N[C@@H](CC(C)C)C(=O)N[C@@H](CC(C)C)C(=O)N1)C(N)=O", "test system": "BR 151", "conditions": "18 h", "MIC": "1 µg/mL"}
{"SMILES": "CN1C(=O)[C@@H]2NC(=O)[C@@H]3NC(=O)[C@@H](c4ccc(O)cc4)NC(=O)[C@H](NC(=O)C(NCc4cccc(F)c4F)c4ccc(O)cc4)Cc4c[nH]c5cc(ccc45)-c4cc3cc(c4O)Oc3ccc(cc3)C[C@H]1C(=O)N[C@@H](C(=O)O)c1ccc(O)c(c1)Oc1ccc2cc1 (some centres unmarked)", "test system": "168, Mueller-Hinton broth", "MIC": "8 µg/mL"}
{"SMILES": "CC[C@H](C)[C@H](NC(=O)[C@@H](Cc1ccccc1)NC)C(=O)N[C@@H](CO)C(=O)N[C@H](CCCNC(=N)N)C(=O)N[C@@H](C(=O)N[C@H](C(=O)N[C@@H](CO)C(=O)N[C@H]1C(=O)N[C@@H](C)C(=O)N[C@@H](CC(C)C)C(=O)N[C@@H]([C@@H](C)CC)C(=O)O[C@H]1C)[C@@H](C)CC)[C@@H](C)CC", "assay": "broth microdilution", "test system": "ATCC 6051, Mueller-Hinton broth", "conditions": "16 h, 37 °C", "MIC": "≤ 0.0078 µg/mL"}
{"SMILES": "CC[C@H](C)[C@H](NC(=O)[C@H](CCCCN)NC(=O)[C@@H]1CCCN1C(=O)[C@@H](NC(=O)[C@H](CC(C)C)NC(=O)[C@H](CCCCN)NC(=O)[C@H](CC(C)C)NC(=O)[C@@H](NC(=O)[C@H](CO)NC(=O)CNC(=O)[C@H](Cc1ccccc1)NC(=O)[C@@H](N)Cc1ccccc1)C(C)C)[C@@H](C)CC)C(=O)N[C@@H](CC(C)C)C(N)=O", "assay": "broth microdilution", "MIC": "6.25 µM"}
{"SMILES": "CN[C@@H]1[C@H](O)[C@H](NC)[C@H]2O[C@]3(O)[C@H](O[C@@H]2[C@H]1O)O[C@H](C)C[C@@]3(O)CNCc1ccc(F)cc1", "test system": "ATCC 23857", "MIC": "3.1 µg/mL"}
{"SMILES": "CC(C)C[C@@H]1NC(=O)CSC[C@@H]2NC(=O)[C@H](CC(C)C)NC(=O)[C@H](CCCCN)NC(=O)[C@H](CCCCN)NC(=O)[C@H](CCCCNC(=O)[C@H](CCCCN)NC(=O)[C@H](CC(C)C)NC1=O)NC(=O)[C@H](CCCCN)NC(=O)[C@H](CC(C)C)NC(=O)[C@H](CC(C)C)NC(=O)CSC[C@@H](C(=O)N[C@@H](CCCCN)C(N)=O)NC(=O)[C@H](CC(C)C)NC(=O)[C@H](CC(C)C)NC(=O)[C@H](CC(C)C)NC2=O", "test system": "BR 151", "conditions": "18 h", "MIC": "16 µg/mL"}
{"SMILES": "CCCCCCCCCCCCCCCCCCSCC1OC(OC2C(N)CC(N)C(OC3OC(CN)C(O)CC3N)C2O)C(O)C(N)C1O (centres unmarked)", "test system": "168 AAC(6')/APH(2'') plasmid", "MIC": "> 150 µg/mL"}
{"SMILES": "CC[C@H](C)[C@H](N)C1=N[C@H](C(=O)N[C@@H](CC(C)C)C(=O)N[C@H](CCC(=O)O)C(=O)N[C@H](C(=O)N[C@H]2CCCCNC(=O)[C@H](CC(N)=O)NC(=O)[C@@H](CC(=O)O)NC(=O)[C@H](Cc3c[nH]cn3)NC(=O)[C@@H](Cc3ccc(-c4ccccc4)cc3)NC(=O)[C@H]([C@@H](C)CC)NC(=O)[C@@H](CCCN)NC2=O)[C@@H](C)CC)CS1", "test system": "168", "conditions": "18 h, 37 °C, together with: ZnSO4 0.3 mM", "MIC": "1 µg/mL"}
{"SMILES": "N=C(N)NCCC[C@@H]1NC(=O)[C@H](CCCNC(=N)N)NC(=O)[C@H](CCCNC(=N)N)NC(=O)[C@H](CCCNC(=N)N)NC(=O)[C@H](Cc2c[nH]c3ccccc23)NC(=O)[C@H](CCCNC(=N)N)NC(=O)[C@H](CCCNC(=N)N)NC(=O)[C@@H](N)CCn2cc(nn2)C[C@@H](C(N)=O)NC1=O", "test system": "CMCC 63501", "conditions": "24 h, 37 °C", "MIC": "31.2 µg/mL"}
{"SMILES": "CC(C)C[C@@H]1NC(=O)CSC[C@@H](C(=O)N[C@@H](CCCCN)C(N)=O)NC(=O)[C@H](CC(C)C)NC(=O)[C@H](CC(C)C)NC(=O)[C@H](CC(C)C)NC(=O)[C@@H]2CSCC(=O)N[C@@H](CC(C)C)C(=O)N[C@@H](CC(C)C)C(=O)N[C@@H](CCCCN)C(=O)N[C@@H](CCCCNC(=O)[C@H](CCCCN)NC(=O)[C@H](CC(C)C)NC1=O)C(=O)N[C@@H](CCCCN)C(=O)N[C@@H](CCCCN)C(=O)N[C@@H](CC(C)C)C(=O)N2", "test system": "BR 151", "conditions": "18 h", "MIC": "4 µg/mL"}
{"SMILES": "O=C(c1ccccc1O)c1[nH]c(Cl)c(Cl)c1-n1c(C(=O)c2ccccc2O)cc(Cl)c1Cl", "assay": "microbial growth, broth dilution", "test system": "168", "conditions": "20 h", "MIC": "0.125 µg/mL"}
{"SMILES": "CC(C)C[C@@H]1NC(=O)[C@H](CC(C)C)NC(=O)[C@H](CCCCN)NC(=O)CSC[C@@H](C(N)=O)NC(=O)[C@H](CC(C)C)NC(=O)[C@H](CCCCN)NC(=O)[C@H](CCCCN)NC(=O)[C@@H]2CSCC(=O)N[C@@H](CCCCN)C(=O)N[C@@H](CC(C)C)C(=O)N[C@@H](CC(C)C)C(=O)N[C@@H](CCCCNC1=O)C(=O)N[C@@H](CCCCN)C(=O)N[C@@H](CC(C)C)C(=O)N2", "test system": "BR 151", "conditions": "18 h", "MIC": "16 µg/mL"}
{"SMILES": "CC[C@H](C)[C@H](NC(=O)[C@H](CCCN)NC(=O)[C@H](CC(N)=O)NC(=O)[C@H](CC(C)C)NC(=O)[C@H](Cc1ccccc1)NC(=O)[C@H](CCCN)NC(=O)[C@H](CCCNC(=N)N)NC(=O)[C@H](CC(C)C)NC(=O)[C@H](CC(C)C)NC(=O)[C@H](CCCN)NC(=O)[C@H](CCCNC(=N)N)NC(=O)[C@H](CC(C)C)NC(=O)CNC(C)=O)C(=O)N[C@@H](CCCN)C(=O)N[C@@H](CCCNC(=N)N)C(N)=O", "assay": "broth microdilution", "test system": "ATCC 6633", "MIC": "3.12 µM"}
